{"data": "Results gathered from unrelated publications", "note": "Compare with care: the assays were run in different laboratories. ± marks the error that the study gave."}
{"Structure (SMILES)": "COc1ccc(-c2cc(=O)c3c(O)cc(O[C@@H]4O[C@H](CO[C@@H]5O[C@@H](C)[C@H](O)[C@@H](O)[C@H]5O)[C@@H](O)[C@H](O)[C@H]4O)cc3o2)cc1", "assay": "short-term stability", "system": "rat plasma", "setting": "8 h, room temperature, low QC level", "measured concentration [ng/mL]": "7.07 ± 1.76"}
{"Structure (SMILES)": "Cc1[nH]c(/C=C2\\C(=O)Nc3ccc(F)cc32)c(C)c1NC(=O)CCN1CCN(C)CC1", "system": "dog plasma", "setting": "40 ng/mL nominal, 30 d, -80 °C, frozen storage", "measured concentration [ng/mL]": 39.6}
{"Structure (SMILES)": "C[N+](C)(C)CC(CC(=O)[O-])OC(=O)CCC(=O)Nc1ccn([C@@H]2O[C@H](CO)[C@@H](O)C2(F)F)c(=O)n1 (some centres unmarked)", "system": "THU-treated rat plasma", "setting": "125.00 ng/mL, 1 h, 20 °C, bench-top stability, mid QC", "measured concentration [ng/mL]": "114 ± 1.3"}
{"Structure (SMILES)": "CNC(=O)N[C@]1(C)CCC[C@@]2(C)C3CC[C@@]4(C)C[C@]3(CCC21)CC4=O (single isomer, unassigned)", "system": "processed rat plasma", "setting": "400 ng/mL, 24 h, room temperature, autosampler stability", "measured concentration [ng/mL]": "445 ± 27.3"}
{"Structure (SMILES)": "COC(=O)C(c1ccccc1Cl)N1CCC2SC(=O)C=C2C1 (centres unmarked)", "assay": "LC-MS/MS", "system": "human plasma", "setting": "2 ng/mL spiked, 45 days, -80 °C", "measured concentration [ng/mL]": "2 ± 0.1"}
{"Structure (SMILES)": "COc1ccc([C@@H]2CC(=O)c3c(O)cc(O[C@@H]4O[C@H](CO[C@@H]5O[C@@H](C)[C@H](O)[C@@H](O)[C@H]5O)[C@@H](O)[C@H](O)[C@H]4O)cc3O2)cc1O", "system": "rat plasma", "setting": "31.25 ng/mL, 7 days, -80 °C, long-term storage", "measured concentration [ng/mL]": "30 ± 0.69"}
{"Structure (SMILES)": "COC(=O)C(c1ccccc1Cl)N1CCC(SCC(=O)c2cccc(OC)c2)C(=CC(=O)O)C1 (centres unmarked)", "assay": "LC-MS/MS", "system": "extract in autosampler", "setting": "2 ng/mL, 24 h, 4 °C", "measured concentration [ng/mL]": "2.1 ± 0.2"}
{"Structure (SMILES)": "Oc1ccc2ccccc2c1/N=N/c1ccccc1", "system": "rat whole blood extract", "setting": "0.2 µg/L, 30 days, -20 °C, long-term storage", "measured concentration [ng/mL]": 0.217}
